Assay results gathered from unrelated publications.
Every numbered part comes from another study and shows a few of its results, in no order.

Set 1
Target: Sal-like protein 4, full length isoform A (SALL4, Homo sapiens, UniProt Q9UJQ4, residues 1-1053)
Sequence of UniProt Q9UJQ4 (whole entry, looked up): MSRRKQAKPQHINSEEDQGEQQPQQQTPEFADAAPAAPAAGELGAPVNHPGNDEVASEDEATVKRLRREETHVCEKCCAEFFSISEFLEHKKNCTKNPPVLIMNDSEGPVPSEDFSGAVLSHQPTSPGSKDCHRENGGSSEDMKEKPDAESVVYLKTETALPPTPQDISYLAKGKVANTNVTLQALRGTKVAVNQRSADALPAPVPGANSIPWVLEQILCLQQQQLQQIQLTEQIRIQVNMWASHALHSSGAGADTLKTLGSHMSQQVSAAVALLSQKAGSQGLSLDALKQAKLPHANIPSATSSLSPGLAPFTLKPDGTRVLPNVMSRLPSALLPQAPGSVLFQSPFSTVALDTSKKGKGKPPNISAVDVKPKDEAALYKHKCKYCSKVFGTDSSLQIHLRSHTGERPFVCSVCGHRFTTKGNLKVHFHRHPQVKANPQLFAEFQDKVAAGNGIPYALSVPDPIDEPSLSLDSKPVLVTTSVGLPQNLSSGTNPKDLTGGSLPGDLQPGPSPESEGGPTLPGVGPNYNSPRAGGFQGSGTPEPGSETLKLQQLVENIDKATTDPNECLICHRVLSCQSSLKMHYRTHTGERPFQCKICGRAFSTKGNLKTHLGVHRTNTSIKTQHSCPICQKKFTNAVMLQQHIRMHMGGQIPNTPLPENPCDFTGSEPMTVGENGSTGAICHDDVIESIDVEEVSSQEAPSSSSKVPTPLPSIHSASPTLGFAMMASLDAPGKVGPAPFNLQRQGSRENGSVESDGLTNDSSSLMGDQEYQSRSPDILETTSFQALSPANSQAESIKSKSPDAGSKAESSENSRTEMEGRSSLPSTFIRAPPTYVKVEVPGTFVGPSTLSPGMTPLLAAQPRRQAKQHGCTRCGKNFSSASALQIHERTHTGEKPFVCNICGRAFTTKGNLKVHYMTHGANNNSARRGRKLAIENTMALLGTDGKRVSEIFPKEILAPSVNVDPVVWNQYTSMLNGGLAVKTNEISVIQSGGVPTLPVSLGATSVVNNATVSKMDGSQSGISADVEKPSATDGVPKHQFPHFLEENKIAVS
Method: universal PBM
Molecule type: double-stranded DNA, one strand shown
Sample: in vitro
Tested at: 600 nM
Notes: 8-mer, flanks averaged, mean of replicates
Direction: higher = stronger binding
The E-score of `CACTCGGA` is reported as -0.0126.
For `GGTTCGAC`, the E-score was -0.148.
`AGTGCAAA` gave an E-score of 0.17.
`CGGGATTA` gave an E-score of -0.0198.
`AATCCTCG` gave an E-score of -0.178.
With `CGTACACA` the E-score was 0.00342.
`ACTATCTC` gave an E-score of 0.128.
For `GACAAGCC`, the E-score was -0.0682.
The E-score of `CTACGCAG` is reported as -0.198.
`TCCGCGGA` has an E-score of -0.339.
With `GCAGCGTA` the E-score was -0.114.
The E-score of `TCCGGCCA` is reported as -0.268.
For `AAGCGAAG`, the E-score was 0.00789.
With `CCCATGTA` the E-score was 0.0886.
With `CGAGTTAA` the E-score was -0.0272.

Set 2
Target: RNA binding protein fox-1 homolog 2, RRM domain, GST-SBP tag (RBFOX2, Homo sapiens, UniProt O43251-10, residues 100-194)
Method: RNA Bind-n-Seq
Molecule type: RNA
Sample: in vitro
Tested at: 365 nM
Notes: natural RNA segment, single round, ends assumed
Baseline: no-protein control
Direction: higher = stronger binding
Residues (chain): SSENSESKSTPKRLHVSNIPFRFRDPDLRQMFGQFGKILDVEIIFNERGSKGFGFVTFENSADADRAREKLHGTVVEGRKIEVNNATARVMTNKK
Under “RBNS enrichment (R)”, `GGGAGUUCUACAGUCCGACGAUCGUGCAAUCACAUCAAAAAAACAACCAGCCAGGAUUAAAGGUAUUAUAAAUCCUCAUAGCGGAACAUUUCUCAGGGCAAAGGAACCUGGCUCAUUUGAAGAUUAAUGUUCCUGGAAUUCUCGGGUGCCAA` is recorded as 0.624.
Under “RBNS enrichment (R)”, `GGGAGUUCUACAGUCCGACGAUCCUUAGAAACAAAAAGAGCUUUCCUUCUCCAGGAAUACUGAACAUGGGAGCUCUUGAAAUAUGUAGUAUUAAAAGUUGCAUUUGAAAUUCUUGACUUUCUUAUGGGCACUUUGGAAUUCUCGGGUGCCAA` is recorded as 0.395.
For `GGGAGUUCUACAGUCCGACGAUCGAAAAGUAUUUUCUGUUAAUUUUUUUAAUUUUUGGCCAAAUUAUUUUCUCUUUGUCAUUAAAGUCAAAUGUCUAUCUGGCUCACCACAAAGUGUUCUUUGAUUUUGGCUUUGGAAUUCUCGGGUGCCAA`, “RBNS enrichment (R)” read 0.458.
`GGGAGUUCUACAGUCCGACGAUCAAUUUGAUAUGCUGUUUAGUCACUACAGUGCCCUCAAAGGGCAGAAGUUGCAGCCUUUUUUAUAUUGCCUGCCAAAAUUUGAAGUAUUAGAAGAAAGUGUGCCAUGAGAGUGGAAUUCUCGGGUGCCAA` — result for “RBNS enrichment (R)”: 0.913.
`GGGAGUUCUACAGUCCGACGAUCUUCUGGGCUGAUGGGUGCCCUUUCCUGGCAGUCUCAGUCCAAAAGUGUUGACUGUGUCAUUAGUCCUUUGUCUAAGUAGGGCCAGGGCACCGUAUUCCUCUCCCAGGUGUUGGAAUUCUCGGGUGCCAA` — result for “RBNS enrichment (R)”: 0.255.
`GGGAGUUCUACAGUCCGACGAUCUCUCAUUUUUUAUACUAAGCAAUAACUUUCCAAAGCAAGAAGUUCAGGAUGGAGAGAGUCCCCUCCUGUGUAGGCAUGGGGUGGAUGCGGUGCCCACCUGGGCUAUGUGGUGGAAUUCUCGGGUGCCAA` — result for “RBNS enrichment (R)”: 1.2.
`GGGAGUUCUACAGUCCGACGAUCGGAAUUACUCUUUUAGAGAAAAACACUGGAAAUUUUGCUAACACAAUACUUAAAAGUAUAUAGUUGGUGGUUAAGCUUAUGAGAUGAGUGAAUGGAAAACCUGGGAGAGGUGGAAUUCUCGGGUGCCAA` — result for “RBNS enrichment (R)”: 1.02.
`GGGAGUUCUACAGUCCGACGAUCUAUUGAAAUGGUUUCCUAGUGGUAGUAGGAAGACUGAAUAAGAACAACCUAUUUUCUGGUUGUUGUCAGCUUGCCCCUGUCUAUACAGCUUGUUACGUGAAUUCAACAAGUGGAAUUCUCGGGUGCCAA`: “RBNS enrichment (R)” 0.456.

Set 3
Target: RING finger protein unkempt homolog, zinc fingers 1-6, GST-SBP tag (UNK, Homo sapiens, UniProt Q9C0B0, residues 30-357)
Sequence of UniProt Q9C0B0 (30-357, looked up): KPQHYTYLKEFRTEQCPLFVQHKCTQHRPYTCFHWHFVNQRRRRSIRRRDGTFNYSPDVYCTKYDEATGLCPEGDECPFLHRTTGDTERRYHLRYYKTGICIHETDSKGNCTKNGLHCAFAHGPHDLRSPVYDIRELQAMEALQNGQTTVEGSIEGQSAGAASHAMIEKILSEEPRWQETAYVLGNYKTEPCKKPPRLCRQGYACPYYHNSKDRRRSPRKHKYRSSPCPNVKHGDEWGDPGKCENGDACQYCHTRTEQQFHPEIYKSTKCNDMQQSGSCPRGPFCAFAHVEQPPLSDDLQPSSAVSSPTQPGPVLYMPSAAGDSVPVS
Method: RNA Bind-n-Seq
Molecule type: RNA
Sample: in vitro
Tested at: not given
Notes: RNA with constant flanks, human and mouse sites, ends assumed
Baseline: input RNA pool
Direction: higher = stronger binding
`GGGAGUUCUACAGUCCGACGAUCCCCGGCCCCUUCGGGUCCCUGCAGGGCGCUUUUCAGCCUAAGGUGUCUGACCCGUACCGGGCGGUGGUCAAGGUGAGCACGUGUUGGGAAGGCCCGUGGCAAGGGAGGACUCUGGUGCCCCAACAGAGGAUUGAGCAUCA` gave a bound/input enrichment of 0.118 ratio.
With `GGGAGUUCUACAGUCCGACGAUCCCUCCCGGCCUCCUCUUGCCAGAUCUGCUCUGAAAAACUGCUCAAUGAAGCUGAUUUUUGGUUGUUUCUGUCACAGGACUCAGGGUGACAGAAAUCAAUAAAUAGAAUGCAAGUACUGCCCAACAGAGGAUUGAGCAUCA` the bound/input enrichment was 0.286 ratio.
`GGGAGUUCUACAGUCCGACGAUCAUUCUGCUGGGCAAUGGCACCCUGCCCGCCACCAUCCUCACCAGUCUCUUCACCGACAGCUUAGUCAAAGAAGGCAUUGCGGCCUCAUUUGCUGUCAAGCUUUUCAAAGCAUGGAUGGCACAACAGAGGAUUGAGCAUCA` has a bound/input enrichment of 0.123 ratio.
`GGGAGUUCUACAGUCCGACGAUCGCGGGUGUAAGGGGAUAUCUUGAUAAACUGGAGCCCAGCAAGAUUACAAAGUUUGAGAAUGCUUUCUUGUCUCAUGUCGUCAGCCAGCACCAAGCCUUGUUGGGCACUAUCAGGGCUGAUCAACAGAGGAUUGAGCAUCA` gave a bound/input enrichment of 0.122 ratio.
The bound/input enrichment of `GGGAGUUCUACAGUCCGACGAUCCGCAAUACUAUUGCUUCCAUUGCUGCUGGUGUACUAUUUUUUACAGGCUGGUGGAUUAUCAUAGAUGCAGCUGUUAUUUAUCCCACCAUGAAAGAUUUCAACCACUCAUACCAUGCCUGUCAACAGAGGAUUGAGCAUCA` is reported as 0.341 ratio.
For `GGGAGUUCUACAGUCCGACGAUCUGUUUCCCUUUGUGGGUGGGUUCCUACAGCGCUCGUUCUAGAACACAAGUGGAUCCUUUUUGAAUGUUCAUGGAAGGGCCAGGAGUUCUGUACAGCCAGGACCCUGCAGCUUUAUUAAAGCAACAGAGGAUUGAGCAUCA`, the bound/input enrichment was 0.168 ratio.
The bound/input enrichment of `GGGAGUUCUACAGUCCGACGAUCAGGAUAGUAAGUUCAGCUAAUGAACAAAAAAGAUUUGAGUUCUUGGUUUGGGCUAAAACUAUAGAGAGAUCAUGCCCUUUUGUACGGUGCAGGUUAUUGUCAUUCGACCGAUAACUUAUUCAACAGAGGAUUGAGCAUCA` is reported as 0.206 ratio.
The bound/input enrichment of `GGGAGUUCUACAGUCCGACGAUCAAUAUGGCAACUUUGAAAGAUAUCACCAGGAGACUAAAGUCCAUCAAAAACAUCCAGAAAAUUACCAAGUCUAUGAAAAUGGUAGCGGCAGCAAAAUAUGCCCGAGCUGAGAGAGAGCUGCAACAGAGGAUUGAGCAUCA` is reported as 0.343 ratio.

Single results of other studies
For `CYCS (Homo sapiens, UniProt P99999)`, interaction screen read “cross-linked” (PHB2 (Homo sapiens, UniProt Q99623); cross-linking MS; hits only).
The fold induction of `PhoQ, residues 284 288 289 292 302 303 SLANIV` is reported as 6.32 (PhoP, residues 12 14 15 18 19 SYFRT (Escherichia coli, UniProt P23836); Sort-seq, measured: YFP reporter; E. coli; PhoQ-PhoP variant library, with: 10 µM Mg2+; baseline: high Mg2+ state, higher = stronger signaling).
`FARP2 (Homo sapiens, UniProt O94887)`: cross-linked residues “E547 to K64” (PRPF19 (Homo sapiens, UniProt Q9UMS4); cross-linking MS; cell fractions; with: DMTMM).

A few entries again (set 3):
With `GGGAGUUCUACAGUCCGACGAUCCCUCCCGGCCUCCUCUUGCCAGAUCUGCUCUGAAAAACUGCUCAAUGAAGCUGAUUUUUGGUUGUUUCUGUCACAGGACUCAGGGUGACAGAAAUCAAUAAAUAGAAUGCAAGUACUGCCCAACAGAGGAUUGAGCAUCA` the bound/input enrichment was 0.286 ratio.
`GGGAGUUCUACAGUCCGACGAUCAUUCUGCUGGGCAAUGGCACCCUGCCCGCCACCAUCCUCACCAGUCUCUUCACCGACAGCUUAGUCAAAGAAGGCAUUGCGGCCUCAUUUGCUGUCAAGCUUUUCAAAGCAUGGAUGGCACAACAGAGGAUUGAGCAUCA` has a bound/input enrichment of 0.123 ratio.
The bound/input enrichment of `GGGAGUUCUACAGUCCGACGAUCCGCAAUACUAUUGCUUCCAUUGCUGCUGGUGUACUAUUUUUUACAGGCUGGUGGAUUAUCAUAGAUGCAGCUGUUAUUUAUCCCACCAUGAAAGAUUUCAACCACUCAUACCAUGCCUGUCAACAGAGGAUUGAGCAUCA` is reported as 0.341 ratio.
